Measured values collected from several papers.
Parts stem from different laboratories: compare values within a part only. Changes are numbered by the printed parent chain.
Sequence of UniProt O23661 (whole entry, looked up): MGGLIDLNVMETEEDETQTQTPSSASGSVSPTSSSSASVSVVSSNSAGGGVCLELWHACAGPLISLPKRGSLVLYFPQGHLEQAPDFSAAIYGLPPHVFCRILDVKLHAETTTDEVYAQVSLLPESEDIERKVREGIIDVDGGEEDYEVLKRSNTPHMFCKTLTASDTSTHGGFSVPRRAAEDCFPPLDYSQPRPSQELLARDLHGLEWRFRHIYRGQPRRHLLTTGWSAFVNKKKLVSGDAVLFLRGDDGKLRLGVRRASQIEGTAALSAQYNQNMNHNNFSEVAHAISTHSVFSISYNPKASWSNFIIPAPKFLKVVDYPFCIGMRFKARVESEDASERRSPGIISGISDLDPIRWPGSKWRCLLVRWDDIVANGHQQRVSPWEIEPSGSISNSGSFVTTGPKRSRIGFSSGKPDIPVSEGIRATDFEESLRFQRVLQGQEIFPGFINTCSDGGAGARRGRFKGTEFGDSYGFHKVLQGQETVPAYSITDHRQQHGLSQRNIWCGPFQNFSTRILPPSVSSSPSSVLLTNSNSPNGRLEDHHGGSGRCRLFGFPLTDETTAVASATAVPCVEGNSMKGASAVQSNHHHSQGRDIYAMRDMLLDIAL
Sequence of UniProt P93024 (whole entry, looked up): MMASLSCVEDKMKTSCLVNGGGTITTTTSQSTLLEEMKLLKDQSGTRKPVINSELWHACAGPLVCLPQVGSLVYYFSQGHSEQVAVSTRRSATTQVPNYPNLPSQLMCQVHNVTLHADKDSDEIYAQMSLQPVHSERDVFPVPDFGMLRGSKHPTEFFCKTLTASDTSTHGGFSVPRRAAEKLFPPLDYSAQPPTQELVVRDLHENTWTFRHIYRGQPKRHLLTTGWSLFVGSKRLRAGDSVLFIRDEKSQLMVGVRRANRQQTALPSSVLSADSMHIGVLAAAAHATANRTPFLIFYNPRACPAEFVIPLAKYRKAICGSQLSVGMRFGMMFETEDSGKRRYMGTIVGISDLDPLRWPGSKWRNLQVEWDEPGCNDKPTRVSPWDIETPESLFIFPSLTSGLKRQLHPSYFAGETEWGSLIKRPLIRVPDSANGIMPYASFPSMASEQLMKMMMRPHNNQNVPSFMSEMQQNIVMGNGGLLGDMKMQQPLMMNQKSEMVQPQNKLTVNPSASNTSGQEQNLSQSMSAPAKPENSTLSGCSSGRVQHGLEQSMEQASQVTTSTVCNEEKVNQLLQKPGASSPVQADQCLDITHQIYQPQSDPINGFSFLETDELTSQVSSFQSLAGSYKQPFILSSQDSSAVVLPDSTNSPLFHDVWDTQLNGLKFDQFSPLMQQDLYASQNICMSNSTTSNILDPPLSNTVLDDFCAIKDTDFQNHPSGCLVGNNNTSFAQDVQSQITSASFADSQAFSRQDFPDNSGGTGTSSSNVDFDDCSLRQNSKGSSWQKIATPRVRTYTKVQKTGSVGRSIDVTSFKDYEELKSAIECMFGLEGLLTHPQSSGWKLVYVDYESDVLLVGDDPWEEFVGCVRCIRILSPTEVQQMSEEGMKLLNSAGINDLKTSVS
Sequence of UniProt Q9ZTX8 (whole entry, looked up): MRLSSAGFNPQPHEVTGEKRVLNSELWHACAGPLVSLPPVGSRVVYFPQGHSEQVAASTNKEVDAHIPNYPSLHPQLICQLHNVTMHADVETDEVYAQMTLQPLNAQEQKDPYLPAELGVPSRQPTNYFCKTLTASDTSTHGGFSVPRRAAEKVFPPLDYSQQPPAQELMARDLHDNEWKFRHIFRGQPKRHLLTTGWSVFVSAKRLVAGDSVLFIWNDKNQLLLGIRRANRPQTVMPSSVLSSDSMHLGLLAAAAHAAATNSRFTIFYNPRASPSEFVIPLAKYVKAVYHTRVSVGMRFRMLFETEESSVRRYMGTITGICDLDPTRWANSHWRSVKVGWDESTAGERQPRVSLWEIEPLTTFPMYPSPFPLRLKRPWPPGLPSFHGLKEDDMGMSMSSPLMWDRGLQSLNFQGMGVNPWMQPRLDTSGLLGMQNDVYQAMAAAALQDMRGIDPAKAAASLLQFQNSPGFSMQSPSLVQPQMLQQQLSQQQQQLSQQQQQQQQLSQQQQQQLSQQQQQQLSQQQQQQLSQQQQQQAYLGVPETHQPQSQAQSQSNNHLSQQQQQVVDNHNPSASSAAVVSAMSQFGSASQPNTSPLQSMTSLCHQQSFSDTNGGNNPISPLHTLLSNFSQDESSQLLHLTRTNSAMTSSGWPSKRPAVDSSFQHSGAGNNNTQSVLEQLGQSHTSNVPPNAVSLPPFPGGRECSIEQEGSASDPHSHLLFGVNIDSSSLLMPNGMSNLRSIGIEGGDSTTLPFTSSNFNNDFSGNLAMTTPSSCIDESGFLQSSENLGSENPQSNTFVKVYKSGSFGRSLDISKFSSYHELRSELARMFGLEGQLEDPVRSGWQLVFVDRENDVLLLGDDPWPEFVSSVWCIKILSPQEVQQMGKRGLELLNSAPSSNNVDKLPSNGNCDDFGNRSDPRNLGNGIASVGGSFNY
Sequence of UniProt Q93YR9 (whole entry, looked up): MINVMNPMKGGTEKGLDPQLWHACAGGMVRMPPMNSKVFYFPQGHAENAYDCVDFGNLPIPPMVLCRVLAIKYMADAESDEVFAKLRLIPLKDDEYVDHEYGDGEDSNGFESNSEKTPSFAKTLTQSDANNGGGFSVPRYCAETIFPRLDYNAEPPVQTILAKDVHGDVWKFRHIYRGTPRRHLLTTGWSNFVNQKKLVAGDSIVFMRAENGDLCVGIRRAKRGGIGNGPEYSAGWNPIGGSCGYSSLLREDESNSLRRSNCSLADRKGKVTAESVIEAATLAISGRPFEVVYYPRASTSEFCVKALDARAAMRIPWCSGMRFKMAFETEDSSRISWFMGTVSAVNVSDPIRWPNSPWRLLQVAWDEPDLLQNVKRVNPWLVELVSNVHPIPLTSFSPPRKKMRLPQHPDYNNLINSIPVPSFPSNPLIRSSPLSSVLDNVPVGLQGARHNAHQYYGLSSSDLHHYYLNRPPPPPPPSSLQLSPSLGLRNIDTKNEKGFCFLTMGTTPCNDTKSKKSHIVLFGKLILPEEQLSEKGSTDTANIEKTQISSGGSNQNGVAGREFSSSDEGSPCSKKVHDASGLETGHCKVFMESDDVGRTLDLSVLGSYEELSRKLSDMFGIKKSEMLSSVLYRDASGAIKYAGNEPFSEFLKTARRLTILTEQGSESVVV
Sequence of UniProt Q9ZTX9 (whole entry, looked up): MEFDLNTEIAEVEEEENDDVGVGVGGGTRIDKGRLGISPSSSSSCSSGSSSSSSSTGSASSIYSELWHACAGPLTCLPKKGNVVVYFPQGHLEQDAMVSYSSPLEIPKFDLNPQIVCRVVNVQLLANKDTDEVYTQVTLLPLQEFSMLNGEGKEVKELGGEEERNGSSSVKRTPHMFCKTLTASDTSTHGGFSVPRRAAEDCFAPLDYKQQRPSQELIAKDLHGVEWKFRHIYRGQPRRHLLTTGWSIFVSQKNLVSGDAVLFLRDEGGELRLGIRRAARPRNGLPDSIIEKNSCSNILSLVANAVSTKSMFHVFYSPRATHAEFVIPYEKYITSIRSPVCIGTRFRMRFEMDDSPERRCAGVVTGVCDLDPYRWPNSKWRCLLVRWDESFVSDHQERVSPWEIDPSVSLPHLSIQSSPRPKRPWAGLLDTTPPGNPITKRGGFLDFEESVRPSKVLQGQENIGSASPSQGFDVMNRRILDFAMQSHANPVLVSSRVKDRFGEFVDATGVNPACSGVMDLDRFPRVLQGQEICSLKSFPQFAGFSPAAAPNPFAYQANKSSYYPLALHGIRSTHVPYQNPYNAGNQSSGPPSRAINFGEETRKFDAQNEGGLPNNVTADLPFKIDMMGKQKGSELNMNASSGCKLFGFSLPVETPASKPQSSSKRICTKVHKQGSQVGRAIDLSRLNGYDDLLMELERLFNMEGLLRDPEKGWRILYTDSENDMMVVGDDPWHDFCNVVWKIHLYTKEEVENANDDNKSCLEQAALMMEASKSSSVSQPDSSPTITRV

Set 1
Target: ABI1, truncated, D143A, DHFR fusion (Arabidopsis thaliana, UniProt P49597)
Technique: DHFR PCA, dose-response
Medium: yeast
Notes: Hill fit, mean, not affinity
With: (+)-ABA, dose series
Reading: lower = more sensitive
Measurement: ABA EC50
Starting sequence: PYL1, truncated, DHFR fusion (Arabidopsis thaliana, UniProt Q8VZS8); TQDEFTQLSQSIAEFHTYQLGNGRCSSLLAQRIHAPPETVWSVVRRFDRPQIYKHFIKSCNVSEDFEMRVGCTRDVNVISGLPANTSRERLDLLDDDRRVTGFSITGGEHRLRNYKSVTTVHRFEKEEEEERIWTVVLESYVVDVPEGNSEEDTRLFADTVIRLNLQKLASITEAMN
K168M: 9970 nM
S9Y: 10400 nM
E4I: 2860 nM
R32V: 2520 nM
P146V: 140000 nM
Q19T: 2590 nM
N77S: 1700 nM
D75C: 1080 nM

Set 2
Sequence: B1 (IAA31)
Technique: two-hybrid
Reference: out of 2 tests
Reading: higher = firmer interaction
Measurement: positive tests
B1: IAA31 (Arabidopsis thaliana, UniProt Q8H174); chain MEVSNSCSSFSSSSVDSTKPSPSESSVNLSLSLTFPSTSPQREARQDWPPIKSRLRDTLKGRRLLRRGDDTSLFVKVYMEGVPIGRKLDLCVFSGYESLLENLSHMFDTSIICGNRDRKHHVLTYEDKDGDWMMVGDIPWDMFLETVRRLKITRPERY
ETT (Arabidopsis thaliana, UniProt O23661): 0
ARF16 570-670 (Arabidopsis thaliana, UniProt Q93YR9): 1
ARF5 788-902 (Arabidopsis thaliana, UniProt P93024): 2
ARF6 790-935 (Arabidopsis thaliana, UniProt Q9ZTX8): 2
ARF4 660-788 (Arabidopsis thaliana, UniProt Q9ZTX9): 0

Set 3
Target: CCNB1, cyclin fold, Cln2 fusion (human)
Technique: yeast growth competition, sequencing
Medium: yeast
Notes: weak parent motif
Reference: not given
Reading: higher = stronger binding
Measurement: normalised enrichment score
Starting sequence: viral docking peptide; KKAKRRLFTISDS
R5A L7A: 0.00849
T9A: 1.33
R6A: 1.52
R5K: 0.154
S11A: 0.919
D12A: 0.554
K2A: 0.679
F8L: 0.684
K1A: 0.713

Set 4
Target: Histone acetyltransferase KAT6A, both winged helices, GST fusion (KAT6A, Homo sapiens, UniProt Q92794, residues 1-181)
Technique: protein binding microarray
Form: double-stranded DNA, one strand shown
Medium: in vitro
Concentration: not given
Notes: 8-mer, flanks averaged, mean of 2 arrays, mostly near background
Reference: not given
Reading: higher = stronger binding
Measurement: E-score
Construct (chain): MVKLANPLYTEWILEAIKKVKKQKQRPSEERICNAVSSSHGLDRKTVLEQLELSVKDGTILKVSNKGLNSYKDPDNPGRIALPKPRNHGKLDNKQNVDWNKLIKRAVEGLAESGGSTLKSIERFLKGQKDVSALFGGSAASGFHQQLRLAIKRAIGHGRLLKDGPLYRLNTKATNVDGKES
ATGTTAAA: -0.0754
GGGGCTGA: 0.0155
TGGTGTAA: -0.002
GTATAGAA: -0.0901
AACACTTG: -0.125
AGAGCCAC: -0.125
GAAATAAC: -0.06
GTAATATA: 0.0222

Excerpt of the above (set 1):
S9Y: 10400 nM
E4I: 2860 nM
R32V: 2520 nM
